Measured values collected from several papers.
Numbered parts are unrelated; each lists some results of a single study.

Study 1 — technique: RNA Bind-n-Seq; molecule type: RNA; sample: in vitro; tested at: 365 nM; baseline: no-protein control; direction: higher = stronger binding; measurement: RBNS enrichment (R)
Target: RNA binding protein fox-1 homolog 2, RRM domain, GST-SBP tag (RBFOX2, Homo sapiens, UniProt O43251-10, residues 100-194)
Notes: natural RNA segment, single round, ends assumed
All sequences stand within: GGGAGUUCUACAGUCCGACGAUC … UGGAAUUCUCGGGUGCCAA
Target sequence (chain): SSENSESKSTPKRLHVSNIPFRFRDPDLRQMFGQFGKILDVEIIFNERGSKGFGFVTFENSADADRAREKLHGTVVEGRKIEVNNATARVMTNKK
UGGACUCAGCUGCCUGUGAAUGCUGCUCACACGAGCCAAAUGUAGGACCUCAGGAACAAUGUUGAUAGACCAUUUACAGGACUGUCAAGAAGCAGACUCAAUUCGAGAAU: 0.409
GUGACCUGAAUGUGCUCACACCCACUGGCUUCUAGAGCCCUCUUUCCAGGGAUUCUGGUAAAGGUGGUUUCUUGCAUCCCACUCCCCUUUUACCUUGGCUUUGACAUAGG: 0.808
GACCUUGCUGCCACAACCUGUGGGGUCUGAUGUGUCCCUUGAUGGGUGCUGCCCUCAGGGACUGCACCCUGACAAGUGUUAAGGCAACAUUCCUUUCUUGUGCCCUGGGC: 0.174
AUCCGUGGCCUUCACCUCUCCAGCUACCCUUUUACCUCAUCAGAAGCAGUGGCUCAGCUAAGUGCUCCCCCUAGCUCCCAUCUCAGGAGACCAAAUCUCACAGAAAAAUA: 0.324
AUUCCCAUGGUUUUAUGACAGACAAGCCUUGUCUUCUAUUCAUAUAGAUAUGCACCUUUUUCUACAUGUAUGGCCUUUACUUACUACACAGCAAGUAGGCCUCAAAGUAA: 0.549
UGGUCUCCUACAGACACAGUGAUCAAGCUGGAUGACUCCUGCUCUUUGGUGCUUUCAACUCAUUGGGAAGAGCUGCAGAUAUUACCAAAAUAGGCUGGCUACAUGAACAC: 0.34
GGCUUCACAUUGGGUCCUGGCCCGAGGAGCCUUGCUUCACUUACUUAGCCCCAGGCCUGGGCAGGGAUUUGGCCUUCCAGUGGAGUUUCCUGUACCCUGGUGUAGCUUUU: 0.347
CAGGGAGUGGCAAAGCACUGACUCCUGAGCUCCCUUCCUCACUAGGACUCCAGUGUGACCCUGCACUGAGAGGACCAAAGCGUCAUUGCAGUCUUCUCUCCACCCUGUAC: 0.414

Study 2 — technique: aptamer microarray, sandwich; molecule type: DNA with 2'F-ANA; sample: in vitro; tested at: 200 nM; together with: Cy3 exosite-II aptamer, 400 nM; direction: higher = stronger binding; measurement: mean fluorescence intensity; sequence: GGTTGGTGTGGTTGG
Target: Prothrombin, mature alpha-thrombin (F2, Homo sapiens, UniProt P00734)
Notes: whole 15-mer aptamer, many near background
2'F-ANA at 1 3 5 6 7 8 11 13 14: 48.7 a.u.
2'F-ANA at 4 5 6 7 8 9 12 13 15: 82.5 a.u.
2'F-ANA at 2 3 5 8 9 12 13 14 15: 115 a.u.
2'F-ANA at 2 4 11 12 13 15: 380 a.u.
2'F-ANA at 2 4 5 6 7 8 9 10 11 12 15: 55 a.u.
2'F-ANA at 3 8 9 11 12 13 14 15: 608 a.u.
2'F-ANA at 1 5 6 7 13 14: 47.1 a.u.
2'F-ANA at 3 4 6 9 11 12 13 14: 246 a.u.
2'F-ANA at 1 4 8 9 11 12: 234 a.u.
2'F-ANA at 1 6 8 9 10 12 14: 46.8 a.u.
2'F-ANA at 1 2 3 5 6 11 12 13 14: 48 a.u.
2'F-ANA at 2 4 9 10 11 13 15: 71.4 a.u.
2'F-ANA at 1 2 3 4 5 6 7 14 15: 48.6 a.u.
2'F-ANA at 1 3 4 8 10 15: 63.3 a.u.
2'F-ANA at 4 7 9 11 14 15: 87.3 a.u.
2'F-ANA at 2 14: 172 a.u.
2'F-ANA at 1 2 4 6 7 8 9 11 12 13: 157 a.u.

Study 3 — technique: protein-binding microarray; molecule type: double-stranded DNA, one strand shown; sample: in vitro; tested at: 2200 nM top; notes: 60-bp whole probe; together with: salmon DNA 0.4 mg/ml; baseline: random background probes; direction: higher = stronger binding; measurement: fitted relative affinity; all sequences stand within: GCCTAGCAC … GTCTTGATTCGCTTGACGCTGCTG
Target: Interferon regulatory factor 7, full length, phosphomimetic (IRF7, Homo sapiens, UniProt Q92985, residues 1-503, S471D/S472D/S475D/S476D/S477D/S483D/S484D/S487D)
Chain of UniProt Q92985 (whole entry, unmodified, looked up): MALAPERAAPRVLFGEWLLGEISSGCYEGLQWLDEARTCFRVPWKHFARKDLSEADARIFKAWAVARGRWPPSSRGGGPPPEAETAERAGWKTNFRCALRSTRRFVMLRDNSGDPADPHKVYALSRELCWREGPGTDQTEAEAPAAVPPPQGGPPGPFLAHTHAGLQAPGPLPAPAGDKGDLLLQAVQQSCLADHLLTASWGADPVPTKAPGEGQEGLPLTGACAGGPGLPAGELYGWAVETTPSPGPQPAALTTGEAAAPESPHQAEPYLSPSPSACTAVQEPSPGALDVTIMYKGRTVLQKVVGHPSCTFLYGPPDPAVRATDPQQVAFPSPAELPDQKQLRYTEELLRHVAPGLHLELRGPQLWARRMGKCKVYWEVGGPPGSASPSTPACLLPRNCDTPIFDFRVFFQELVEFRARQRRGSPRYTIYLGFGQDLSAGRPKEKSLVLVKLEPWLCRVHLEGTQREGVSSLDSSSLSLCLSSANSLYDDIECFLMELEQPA
TTAGATATCAGTATCGACTAGTGCTAG: 0.0172 z-score
TTATAACTGGGGTATCGATTAGTGCTA: 0.465 z-score
TTAGATATCAGACTGGATTCGTGCTAG: -0.00909 z-score
AATTGTCTCTGTCCCTGTTTGTGCTAG: 2.41 z-score
TCATCTTTCGATGCTAAAACTGTGCTA: 1.98 z-score
TCACTTCCCAATAATCTTACTGTGCTA: 2.39 z-score
ACCTGAGTCCCTATCTCCTCGTGCTAG: 1.1 z-score
TTAGGTCTCCTTTTCGTTTAGTGCTAG: 3.32 z-score
GACGGACTGGGGACTTGGGACGTGCTA: -0.919 z-score
CCTAGCCTCCCAGCCCAGCAGTGCTAG: -0.82 z-score
TTAGGACTGGGTTTCGGTTTGTGCTAG: 8.96 z-score
GACGGACTGGGGTATCGGCACGTGCTA: -0.884 z-score
TTACGTATCGGGTATCGGTTAGTGCTA: 1.77 z-score
GACGGTCTCGGTCACGGGACGTGCTAG: -0.456 z-score
TTAGATATCTTTTTCCTAATGTGCTAG: 0.789 z-score
GACGCACTGGGGTTTCGAGACGTGCTA: 0.942 z-score
TTAGATATCTGGTTTCGATTAGTGCTA: 4.21 z-score
CTCATGTTACATTTATATCTGTGCTAG: 1.51 z-score
GACGGTCTCGGACAGGGGACGTGCTAG: -0.388 z-score

Study 4 — technique: protein binding microarray; molecule type: double-stranded DNA, one strand shown; sample: in vitro; tested at: not given; baseline: not given; direction: higher = stronger binding; measurement: E-score
Target: Histone acetyltransferase KAT6A, winged helix 1, GST fusion (KAT6A, Homo sapiens, UniProt Q92794, residues 1-85)
Notes: 8-mer, flanks averaged, mean of 2 arrays, mostly near background
Target sequence (chain): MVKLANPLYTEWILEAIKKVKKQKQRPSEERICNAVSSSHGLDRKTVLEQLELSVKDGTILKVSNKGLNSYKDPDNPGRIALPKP
GAAACGGC: 0.239
GCTAGACC: 0.0262
AGCTTTAC: -0.0137
AGGCACAC: -0.159
ATCGGAGG: -0.0281
CTAACCAA: -0.178
CGAATTTC: 0.00675
CGTAGCTC: 0.201
AGATTCTG: -0.362
GGGGCACC: 0.245
AAATCGGC: 0.276
AGTTGCTC: -0.191
CCTGCCTC: -0.126
AGTGAAGC: -0.0428
AATTGCTC: -0.156
ATATTAAA: 0.105

A few entries again (study 1):
AUUCCCAUGGUUUUAUGACAGACAAGCCUUGUCUUCUAUUCAUAUAGAUAUGCACCUUUUUCUACAUGUAUGGCCUUUACUUACUACACAGCAAGUAGGCCUCAAAGUAA: 0.549
UGGUCUCCUACAGACACAGUGAUCAAGCUGGAUGACUCCUGCUCUUUGGUGCUUUCAACUCAUUGGGAAGAGCUGCAGAUAUUACCAAAAUAGGCUGGCUACAUGAACAC: 0.34
AUCCGUGGCCUUCACCUCUCCAGCUACCCUUUUACCUCAUCAGAAGCAGUGGCUCAGCUAAGUGCUCCCCCUAGCUCCCAUCUCAGGAGACCAAAUCUCACAGAAAAAUA: 0.324
GUGACCUGAAUGUGCUCACACCCACUGGCUUCUAGAGCCCUCUUUCCAGGGAUUCUGGUAAAGGUGGUUUCUUGCAUCCCACUCCCCUUUUACCUUGGCUUUGACAUAGG: 0.808
UGGACUCAGCUGCCUGUGAAUGCUGCUCACACGAGCCAAAUGUAGGACCUCAGGAACAAUGUUGAUAGACCAUUUACAGGACUGUCAAGAAGCAGACUCAAUUCGAGAAU: 0.409
GGCUUCACAUUGGGUCCUGGCCCGAGGAGCCUUGCUUCACUUACUUAGCCCCAGGCCUGGGCAGGGAUUUGGCCUUCCAGUGGAGUUUCCUGUACCCUGGUGUAGCUUUU: 0.347
CAGGGAGUGGCAAAGCACUGACUCCUGAGCUCCCUUCCUCACUAGGACUCCAGUGUGACCCUGCACUGAGAGGACCAAAGCGUCAUUGCAGUCUUCUCUCCACCCUGUAC: 0.414
GACCUUGCUGCCACAACCUGUGGGGUCUGAUGUGUCCCUUGAUGGGUGCUGCCCUCAGGGACUGCACCCUGACAAGUGUUAAGGCAACAUUCCUUUCUUGUGCCCUGGGC: 0.174
